Results pooled from the literature.
Every numbered part comes from another study and shows a few of its results, in no order.

Block 1 — technique: universal PBM; molecule type: double-stranded DNA, one strand shown; matrix: in vitro; concentration: 600 nM; reading: higher = stronger binding
Target: Sal-like protein 4, full length isoform A (SALL4, Homo sapiens, UniProt Q9UJQ4, residues 1-1053)
Chain of UniProt Q9UJQ4 (whole entry, looked up): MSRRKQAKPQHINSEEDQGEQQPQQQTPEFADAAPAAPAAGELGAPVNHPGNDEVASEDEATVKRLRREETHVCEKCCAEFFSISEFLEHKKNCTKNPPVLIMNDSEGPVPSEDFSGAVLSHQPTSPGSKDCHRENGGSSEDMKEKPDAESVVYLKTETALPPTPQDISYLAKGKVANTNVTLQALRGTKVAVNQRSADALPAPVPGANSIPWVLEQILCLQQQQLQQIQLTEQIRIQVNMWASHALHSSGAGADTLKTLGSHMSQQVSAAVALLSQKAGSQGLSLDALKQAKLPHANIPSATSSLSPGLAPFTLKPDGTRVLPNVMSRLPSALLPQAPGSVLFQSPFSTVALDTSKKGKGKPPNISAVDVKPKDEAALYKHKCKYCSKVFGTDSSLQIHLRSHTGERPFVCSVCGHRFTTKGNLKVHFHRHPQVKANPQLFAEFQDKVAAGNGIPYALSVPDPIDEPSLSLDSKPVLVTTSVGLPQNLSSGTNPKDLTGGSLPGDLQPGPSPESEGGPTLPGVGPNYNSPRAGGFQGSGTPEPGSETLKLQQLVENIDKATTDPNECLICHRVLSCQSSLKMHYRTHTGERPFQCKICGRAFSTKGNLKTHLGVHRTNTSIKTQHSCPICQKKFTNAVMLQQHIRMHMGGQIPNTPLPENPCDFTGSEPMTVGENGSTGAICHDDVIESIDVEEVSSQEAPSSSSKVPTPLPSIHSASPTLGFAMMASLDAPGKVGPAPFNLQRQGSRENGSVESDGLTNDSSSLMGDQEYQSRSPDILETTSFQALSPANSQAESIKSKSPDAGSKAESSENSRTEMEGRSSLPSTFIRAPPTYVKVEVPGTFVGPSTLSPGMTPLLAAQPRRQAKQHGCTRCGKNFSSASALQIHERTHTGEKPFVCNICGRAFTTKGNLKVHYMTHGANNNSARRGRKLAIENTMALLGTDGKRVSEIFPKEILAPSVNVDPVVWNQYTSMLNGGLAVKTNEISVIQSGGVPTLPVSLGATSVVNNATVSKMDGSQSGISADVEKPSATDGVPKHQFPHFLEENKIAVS
Notes: 8-mer, flanks averaged, mean of replicates
For `CGACGGCA`, the E-score was -0.32.
`CCCATGCG` has an E-score of -0.26.
For `AGTGCCGC`, the E-score was -0.23.
`ATATTTAA` gave an E-score of 0.444.
`AAGCTACT` gave an E-score of 0.05.
For `CGAGGCAA`, the E-score was 0.0345.

Block 2 — technique: aptamer microarray, sandwich; molecule type: DNA with 2'F-ANA; matrix: in vitro; concentration: 200 nM; with: Cy3 exosite-II aptamer, 400 nM; reading: higher = stronger binding; strand: GGTTGGTGTGGTTGG
Target: Prothrombin, mature alpha-thrombin (F2, Homo sapiens, UniProt P00734)
Notes: whole 15-mer aptamer, many near background
For `2'F-ANA at 5 6 8 12 13 14 15`, “mean fluorescence intensity” read 47.6 a.u.
`2'F-ANA at 1 3 5 6 7 9 10 11 13 14 15` — result for “mean fluorescence intensity”: 51.9 a.u.
For `2'F-ANA at 1 2 3 4 6 7 9 11 15`, “mean fluorescence intensity” read 115 a.u.
`2'F-ANA at 3 5 6 7 9 10 12 13 15` — result for “mean fluorescence intensity”: 58 a.u.
Under “mean fluorescence intensity”, `2'F-ANA at 1 3 9 11 13 14` is recorded as 79.2 a.u.
`2'F-ANA at 2 3 4 7 8 12 13 14` — result for “mean fluorescence intensity”: 382 a.u.
For `2'F-ANA at 1 5 7 10 12 15`, “mean fluorescence intensity” read 68.3 a.u.
Under “mean fluorescence intensity”, `2'F-ANA at 6 7 12 13` is recorded as 641 a.u.

Block 3 — technique: protein-binding microarray; molecule type: double-stranded DNA, one strand shown; matrix: in vitro; concentration: 940 nM top; notes: 60-bp whole probe; with: salmon DNA 0.4 mg/ml; reference: random background probes; reading: higher = stronger binding; shared flanks, not repeated: GCCTAGCAC … GTCTTGATTCGCTTGACGCTGCTG
Target: Interferon regulatory factor 5, full length, phosphomimetic (IRF5, Homo sapiens, UniProt Q13568-2, residues 1-514, S451D/S453D/S456D/S462D)
`GACGGTTTCGGGTTACGGGACGTGCTA`: “fitted relative affinity” 9.61 z-score.
`TCATTACCGCATATCGGACTGTGCTAG`: “fitted relative affinity” 0.0435 z-score.
`GACGGTTTCGGTCGCGGGACGTGCTAG` — result for “fitted relative affinity”: 13.6 z-score.
`GACGGTTTCGGTTCCGGAACGTGCTAG` — result for “fitted relative affinity”: 13.6 z-score.
For `TTAGGACTGCTTTTCCCTTAGTGCTAG`, “fitted relative affinity” read -0.105 z-score.
For `GACGATTTCAGTCTCGAGTCGTGCTAG`, “fitted relative affinity” read 2.76 z-score.

Single results of other studies
`PhoQ, residues 284 288 289 292 302 303 ALVSVA` gave a fold induction of 1.98 (PhoP, residues 12 14 15 18 19 YHFSH (Escherichia coli, UniProt P23836); Sort-seq, measured: YFP reporter; E. coli; PhoQ-PhoP variant library, with: 10 µM Mg2+; reference: high Mg2+ state, higher = stronger signaling).
